# Measurements collected from several papers.
# Every numbered part comes from another study and shows a few of its results, in no order.

# Sample 1 — technique: RNA Bind-n-Seq; form: RNA; sample: in vitro; tested at: 365 nM; reference: no-protein control; reading: higher = stronger binding
# Target: RNA binding protein fox-1 homolog 2, RRM domain, GST-SBP tag (RBFOX2, Homo sapiens, UniProt O43251-10, residues 100-194)
# Notes: natural RNA segment, single round, ends assumed
# Residues (chain): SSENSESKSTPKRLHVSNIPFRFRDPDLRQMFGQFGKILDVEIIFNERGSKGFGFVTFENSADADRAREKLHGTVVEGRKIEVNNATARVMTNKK
Sequence,RBNS enrichment (R)
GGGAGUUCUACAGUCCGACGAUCGGAAAUGAAGCUUAAUCAUGGUCAGGUUUGAGAUCUUUUGCAGUGAAAUAAUUUUAUUUAAUAUAAAUGAUCACAUGUCCUCAAUCAUGAAUGAGGUAGGGAGCCUCUCUUGGAAUUCUCGGGUGCCAA,0.28
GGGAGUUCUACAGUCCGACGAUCAAGGGUUUUGUGUUGGCAUGAGUUCUGGAACACAUCUCAGGCUGUCAGAGCAAAGUGAUCCAGAAUGCAACAGGAGCUACCUCCUGUAACCACUACAAUGUCUGUCCUUGUGGAAUUCUCGGGUGCCAA,1.17
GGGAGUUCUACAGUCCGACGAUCAUAUUUGUAACUGGUACAAGAUGAAGGACAGCAGCUUUCCAUCCCUAGUUCAGAGCCCCCGUUCCCCAGGGUCCUGUGGGCUGAGCGGCUGGGGCUGGGGCUGCCCACGUUGGAAUUCUCGGGUGCCAA,0.39
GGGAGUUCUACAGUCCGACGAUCUUCUUCAAAAGACGCAAUUGCAAUAGUAUUUUUUAGAUUUUAUCCAAGAAGUUUUUUGGGCAAAAAUCUUGGAUCAUUUUUAUGUAGCAUGAUUUUCCUUGGGAUGCAAAUGGAAUUCUCGGGUGCCAA,6.14
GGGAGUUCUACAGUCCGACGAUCUUGAUACUUAAGUUGUCGAACAGUAGACAUUACUUGUUUUAUUUAUGAUAUAUUUCAGCUUAAAGUUAUGUUAUUAUAUGUGGAAGUGUAAAUAUAGAUUUGGUGUUUUGUGGAAUUCUCGGGUGCCAA,0.905
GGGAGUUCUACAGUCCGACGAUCCGCAUGGUGUCCUACAGCAGCAGUUUCUGUCUUUGUAAUUCCUUGUUGACCACAUACAGCAGGCAGCUUCACGUCCUCCCGCUAACAUCUGCUGCCUUAGACCUGGGUGGUGGAAUUCUCGGGUGCCAA,0.982
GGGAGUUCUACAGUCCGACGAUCAAUACAGCCUUCCAUCUUCACUCCAGUUAGGGAUCCUUUCAAAGUCUCCUUCACAGUGAGGAAAAAGAGAAGGGUAGAAACUUUAGGGAGCCGGAUUUGUGUAUCAAUUCUGGAAUUCUCGGGUGCCAA,0.256
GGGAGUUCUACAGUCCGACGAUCAAAACACUUAUAGCCUUAAACCAUUCAAGGGCUAAUUAAAAAAAUAGUUAUGAAAUCUUAGCCACAAAAAAUAAAUCAGGUAAACAUUUUAACCUGUCGUUAAGUGUUGUUGGAAUUCUCGGGUGCCAA,1.2
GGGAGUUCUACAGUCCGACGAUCCAUCCAAGAAUUCGUCAUCACGCUGCACAGGCUGCGUCUUUGACGGUGGGUGUUCCAUUUUUAUCCGCUACUCUUUAUUUCAUGGAGUCGUAUCAACGCUAUGAACGCAAUGGAAUUCUCGGGUGCCAA,0.326
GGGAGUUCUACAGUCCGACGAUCACAUUGAUCUAGAUCUGCCUUUAUCCACUCGAAUUAUAAACAGCUCGGCUUGUCCUUGUCCCAUGUGUUUGUAGACACACAUGCAUACUGUCCAAAGAUUAGGGUUGGUGUGGAAUUCUCGGGUGCCAA,0.268
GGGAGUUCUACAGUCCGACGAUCCCCGCCACGAUCUUUCUGUGGUAGCGGCCAGCAGAAGACAUGGCCUGCUCCCCACUCCCUUUCCCCACUCCUUCUUUAUUGCACACAGGACACCAGUCUUCAAGGAAAGGUGGAAUUCUCGGGUGCCAA,0.85
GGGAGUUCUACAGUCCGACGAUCCCAACCUGUGGCUGUGGAUGAACCAGUGUCGCCCCAGCGCGGCCUCCGUAUUGGAGCCCUCCCUGCUUCCCCUUCUUUCUUUCCUCUUUCCCCAGGCCGCCACUGCCCUUUGGAAUUCUCGGGUGCCAA,0.686

# Sample 2 — technique: protein binding microarray; form: double-stranded DNA, one strand shown; sample: in vitro; tested at: not given; reference: not given; reading: higher = stronger binding
# Target: Histone acetyltransferase KAT6A, winged helix 2, GST fusion (KAT6A, Homo sapiens, UniProt Q92794, residues 85-181)
# Notes: 8-mer, flanks averaged, mean of 2 arrays, mostly near background
# Construct (chain): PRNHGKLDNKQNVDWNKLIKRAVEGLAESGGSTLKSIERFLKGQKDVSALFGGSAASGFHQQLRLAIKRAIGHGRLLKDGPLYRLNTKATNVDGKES
Sequence,E-score
AAAACGAG,0.061
AGTATCTA,-0.137
GATACCTA,-0.0778
ACCGGTGA,-0.124
GTAGATAA,0.101
CCATTAGG,-0.0538
GATTTTGA,0.203
CGTCTCTA,-0.0777
ATATGAGA,0.0137
AGGATTTC,0.105
CGCATGTC,-0.0753
GCAAACCA,0.226
CCCGAGCG,0.193
CACAAACG,0.239
GTCCATTA,-0.00436
GCTGGGCC,0.0506
AGACTATA,0.0538
AAGCTTGA,-0.0933
CTATGTAC,-0.269
GAGTCGAC,-0.203
CGTGGCTC,-0.00596
TGAGAACA,0.16
CGAAATGA,0.0727
CATCTATC,-0.0745
ACGCCTGA,0.195

# Sample 3 — technique: protein-binding microarray; form: double-stranded DNA, one strand shown; sample: in vitro; tested at: 250 nM; notes: 60-bp whole probe; added: salmon DNA 0.4 mg/ml; reference: random background probes; reading: higher = stronger binding; shared flanks, not repeated: GCCTAGCAC … GTCTTGATTCGCTTGACGCTGCTG
# Target: Interferon regulatory factor 7, full length, phosphomimetic (IRF7, Homo sapiens, UniProt Q92985, residues 1-503, S101K/S471D/S472D/S475D/S476D/S477D/S483D/S484D/S487D)
# Residues (chain): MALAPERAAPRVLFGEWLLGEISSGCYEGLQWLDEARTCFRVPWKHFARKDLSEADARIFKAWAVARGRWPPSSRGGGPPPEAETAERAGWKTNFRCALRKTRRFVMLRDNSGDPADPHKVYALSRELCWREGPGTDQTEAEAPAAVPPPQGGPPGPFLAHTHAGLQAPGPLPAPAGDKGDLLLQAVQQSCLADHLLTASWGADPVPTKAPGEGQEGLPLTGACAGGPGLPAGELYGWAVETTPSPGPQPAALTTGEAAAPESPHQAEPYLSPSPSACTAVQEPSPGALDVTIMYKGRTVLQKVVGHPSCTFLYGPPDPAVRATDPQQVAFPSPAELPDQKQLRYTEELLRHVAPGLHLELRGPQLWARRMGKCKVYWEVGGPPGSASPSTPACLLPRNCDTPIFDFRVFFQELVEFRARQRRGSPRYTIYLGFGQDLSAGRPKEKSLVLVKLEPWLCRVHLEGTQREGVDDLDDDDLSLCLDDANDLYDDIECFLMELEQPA
Sequence,log fluorescence [z-score]
GACGGTATCGGGACTGGGTACGTGCTA,-0.203
GGCGGTATCGGTCTCGGGACGTGCTAG,0.422
TTAGAACTGAGACTAGATTAGTGCTAG,0.0431
GACGATCTCAGTTTCCAGACGTGCTAG,0.8
TTAGATAACAGTCTCGATTAGTGCTAG,1.53
TTAGGTCTTCTTATCCTTTAGTGCTAG,0.331
GACGGTTTCGACTATCTGGACGTGCTA,5.52
GACGGACTGGGGTTTCGGGACGTGCTA,1.08
GGTCATGTCTGTGTCACAGAGTGCTAG,-0.664
GACGGTATCTGGTATCGGGACGTGCTA,-0.107
CTGGTTTTACTTTCTATCTCGTGCTAG,2.99
TTAGGACTGTGTATCGGTTAGTGCTAG,0.218
TTAGAAGTGGGGTTTCGATTAGTGCTA,5.98
GACGCTTTCCTTTTCCTGACGTGCTAG,2.45
GACGGACTGGGTATCGGGATGTGCTAG,-0.286
GACGGTCTCCTTATCTTGACGTGCTAG,0.164
GGCTCTCAGTGGGCTGCTGGGTGCTAG,-0.663
TTAGGTCTCGGTGTCGGTTAGTGCTAG,0.592
GACGCTTCCAGTTTCGAGACGTGCTAG,4.15
TTTTTTTTTTTTTTGGAATGGTGCTAG,0.762
CTCCTTTTAATTTTTAACGAGTGCTAG,0.988

# Sample 4 — technique: RNA Bind-n-Seq; form: RNA; sample: in vitro; tested at: 200 nM; notes: whole 134-nt RNA, ends assumed; added: 150 mM LiCl; reference: input library; reading: higher = stronger binding; all molecules: 7-deaza-guanosine replaces G
# Target: Fragile X messenger ribonucleoprotein 1, C-terminal low-complexity region (Fmr1, Mus musculus, UniProt P35922)
Sequence,log2 enrichment
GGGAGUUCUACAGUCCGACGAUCCCUCAAGUCCUGUGCUACACAUCGUAUGUACCGAAUCGGUGGUUUGGAAAGGAAAGUAUUAUGUUACGCCGUUCGGAUCUGCACUUCCAGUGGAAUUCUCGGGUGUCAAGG,0.578
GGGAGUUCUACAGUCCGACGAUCUCAAGUCCUGUGCUACACAUCGUAUGUACCGAAUCGGGAAGGGAAGGGGAAGGGAAAGUAUUAUGUUACGCCGUUCGGAUCUGCACUUCCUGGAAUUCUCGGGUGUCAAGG,-1.09
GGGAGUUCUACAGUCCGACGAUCGUCCUGUGCUACACAUCGUAUGUACCGAAUCGGGGAAAAAGGGGAAAAAGGGAAAAAGGAAAGUAUUAUGUUACGCCGUUCGGAUCUGCAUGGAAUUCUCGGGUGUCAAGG,0.565
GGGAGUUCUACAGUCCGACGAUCUCAAGUCCUGUGCUACACAUCGUAUGUACCGAAUCGGGUUUGGUUUGGUUUGGGGAAAGUAUUAUGUUACGCCGUUCGGAUCUGCACUUCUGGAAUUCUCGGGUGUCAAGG,-1.46
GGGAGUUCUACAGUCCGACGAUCCUCAAGUCCUGUGCUACACAUCGUAUGUACCGAAUCGGCCGGGGCCGGGCCGGGAAAGUAUUAUGUUACGCCGUUCGGAUCUGCACUUCCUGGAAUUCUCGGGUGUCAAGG,-0.29
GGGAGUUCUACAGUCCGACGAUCGCCCAUGCUAAAGUAAGAUUGUCUAACAAAGUUGAAGCCAUUGAUGUGGAAGAGGCCAAACGCCUCCAUCGGGAAGCUCUGAAGCAGUCUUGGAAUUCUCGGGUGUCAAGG,0.0354
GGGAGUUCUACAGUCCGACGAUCUCCUGUGCUACACAUCGUAUGUACCGAAUCGGAAAAAAGGGAAAAAAGGGAAAAAAGGGAAAGUAUUAUGUUACGCCGUUCGGAUCUGCAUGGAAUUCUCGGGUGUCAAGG,-0.153
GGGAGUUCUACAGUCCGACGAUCAAGUCCUGUGCUACACAUCGUAUGUACCGAAUCGGCCCCGGGGCCCCGGGCCCCGGAAAGUAUUAUGUUACGCCGUUCGGAUCUGCACUUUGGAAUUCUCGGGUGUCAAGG,-2.47
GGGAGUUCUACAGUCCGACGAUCAGUCCUGUGCUACACAUCGUAUGUACCGAAUCAAAUUUUUAAACCCCCAAACCCAAAAAAGUAUUAUGUUACGCCGUUCGGAUCUGCACUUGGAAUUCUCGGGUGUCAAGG,1.03
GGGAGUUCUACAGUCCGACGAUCUUCCUUCCACGACCCCUGAAGAGCAGCGGUGGGUCUGAGCAUCCUAUCUCCAGGAAGCAGGCCAGCAGGCAAGCCAGCUGCCACCUCGUCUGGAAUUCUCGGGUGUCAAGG,0.743
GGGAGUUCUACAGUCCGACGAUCUCAAGUCCUGUGCUACACAUCGUAUGUACCGAAUCGGUUUGGGGUUUGGUUUGGAAAGUAUUAUGUUACGCCGUUCGGAUCUGCACUUCCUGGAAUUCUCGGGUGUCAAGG,-0.924

# A few entries again (sample 3):
Sequence,log fluorescence [z-score]
TTAGGTCTTCTTATCCTTTAGTGCTAG,0.331
TTAGGTCTCGGTGTCGGTTAGTGCTAG,0.592
CTGGTTTTACTTTCTATCTCGTGCTAG,2.99
GGCGGTATCGGTCTCGGGACGTGCTAG,0.422
TTTTTTTTTTTTTTGGAATGGTGCTAG,0.762
GACGGACTGGGTATCGGGATGTGCTAG,-0.286
GGTCATGTCTGTGTCACAGAGTGCTAG,-0.664
GACGCTTTCCTTTTCCTGACGTGCTAG,2.45
GACGGTATCTGGTATCGGGACGTGCTA,-0.107
GGCTCTCAGTGGGCTGCTGGGTGCTAG,-0.663
